Experimental data of several laboratories.
Protocols differ between the studies behind these lines. ± gives the spread as reported.
Cell line: MDA-MB-231

COc1cc2cc(c1Cl)N(C)C(=O)C[C@H](OC(=O)[C@H](C)N(C)C(=O)CCS)[C@]1(C)O[C@H]1[C@H](C)[C@@H]1C[C@@](O)(NC(=O)O1)[C@H](OC)/C=C/C=C(\C)C2
IC50 (cell growth or viability, ATP luminescence): 0.108 µM

O=C(Cn1cnc2ccccc2c1=O)Nc1ccc(O)cc1[N+](=O)[O-]
IC50 (cell growth or viability, crystal violet; 48 h): > 100 µM

CC[C@@H](C(=O)[C@@H](C)[C@@H](O)[C@H](C)[C@@H]1O[C@@H]([C@@H](CC)C(=O)O)CC[C@@H]1C)[C@H]1O[C@]2(C=C[C@@H](O)[C@]3(CC[C@@](C)([C@H]4CC[C@](O)(CC)[C@H](C)O4)O3)O2)[C@H](C)C[C@@H]1C
IC50 (cell growth or viability, MTT; 72 h): 4.9 µM

O=c1c2ccccc2nc(S)n1Cc1cccnc1
IC50 (cell growth or viability, crystal violet; 48 h): > 100 µM

COc1cc(/C=C/C(O)=C/C(=O)/C=C/c2ccc(O)cc2)ccc1O
IC50 (cell growth or viability, MTT; 48 h): 11.4 µg/mL

CN1C(=O)C(Cc2c[nH]c3ccccc23)NC1=S (stereo not shown)
caspase-3/7 activity (100 µM, together with: etoposide 25 µM): inhibited

O=C(Cn1cnc2ccccc2c1=O)Nc1ncccc1O
IC50 (cell growth or viability, crystal violet; 48 h): > 100 µM

O=C1CCCCC1=C1Sc2nc3ccc(S(=O)(=O)N4CCCC4)cc3nc2S1
IC50 (cell growth or viability, MTT; 24 h): 2.26 µM

Cc1ccc(C(C)C)cc1.[Cl][Ru]([Cl])[PH]12CN3CN(CN(C3)C1)C2
IC50 (cell viability, PrestoBlue): 750 µM

Trastuzumab emtansine
IC50 (cell viability, CellTiter-Glo; 5 d, concentration as DM1 content): 1.614 ± 0.0107 µM
